Published values gathered from unrelated publications.
rep main protease: Replicase polyprotein 1ab, main protease (rep, Severe acute respiratory syndrome coronavirus 2, UniProt P0DTD1)
Spike glycoprotein: Spike glycoprotein (Severe acute respiratory syndrome coronavirus 2, UniProt P0DTC2)

Structure (SMILES)	tested on	assay	system	conditions	how to read	quantity	result
COc1ccc(C[C@@H]2NC(=O)[C@@H](NC(=O)c3ccc(S(C)(=O)=O)cc3)Cc3ccc(cc3)OC[C@H](CC(C)C)NC(=O)CN(CC3CC3)C(=O)[C@@H](C)NC2=O)cc1	Lassa mammarenavirus	viral replication	Huh-7	concentration not given	–	Emax	19.4%
C[C@H](NC(=O)Cc1cc(F)cc(F)c1)C(=O)N[C@H](C(=O)OC(C)(C)C)c1ccccc1	rep main protease	reporter gene (mKate2), inhibitor	–	20 µM	–	inhibition	0.00886%
Cc1cc2nc3c(=O)[nH]c(=O)nc-3n(C[C@H](O)[C@H](O)[C@H](O)CO)c2cc1C	SARS-CoV-2	viral replication, high-content imaging screen	–	cell-based	–	EC50	> 50.1 µM
CCCc1cnc(C)nc1N1C[C@@H]2NC(=O)CN(CCOC)C(=O)CCc3ccc(OC)c(c3)Oc3cccc(c3)CO[C@H]2C1	Lassa mammarenavirus	viral replication	Huh-7	concentration not given	–	Emax	60.4%
CC[C@H](C)[C@H](NC(=O)[C@H](CO)NC(=O)[C@@H]1CCCN1C(=O)[C@H](CO)NC(=O)[C@H](CCSC)NC(=O)CNC(=O)CNC(=O)CNC(=O)[C@H](CCCCN)NC(=O)[C@H](CCCCN)NC(=O)[C@H](CC(C)C)NC(=O)[C@H](CC(C)C)NC(=O)[C@H](CC(C)C)NC(=O)CNC(=O)[C@H](CC(C)C)NC(=O)[C@H](CC(C)C)NC(=O)[C@H](CC(C)C)NC(=O)[C@H](CCCCN)NC(=O)[C@H](CCCCN)NC(=O)[C@H](CC(C)C)NC(=O)[C@@H](N)CCCCN)C(=O)N[C@@H](CC(C)C)C(=O)N[C@@H](CCCCN)C(=O)N[C@@H](Cc1c[nH]cn1)C(=O)N[C@@H](Cc1c[nH]c2ccccc12)C(=O)N[C@@H](CO)C(=O)N[C@@H](CCCNC(=N)N)C(=O)N[C@@H](CCC(N)=O)C(=O)O	HEK-293T	cell death	–	24 h, 10% cell death	–	lowest cytotoxic concentration	> 256 µg/mL
O=C(O[C@@H]1Cc2c(O)cc(O)cc2O[C@@H]1c1cc(O)c(O)c(O)c1)c1cc(O)c(O)c(O)c1	Spike glycoprotein	binding, biolayer interferometry	–	–	–	Kd	11.5 µM
Cc1ncccc1-c1nc2cc(C(=O)NCCCc3ccccc3)ccc2o1	SARS-CoV-2	cytopathic effect	USA_WA1/2020	round 2, 5-point	–	efficacy	45.2%
COC(=O)N[C@H](C(=O)N1CCC[C@H]1c1nc(-c2ccc(-c3ccc(-c4c[nH]c([C@@H]5CCCN5C(=O)[C@@H](NC(=O)OC)C(C)C)n4)cc3)cc2)c[nH]1)C(C)C	SARS-CoV-2	viral replication, GFP plate reader screen	–	cell-based	–	EC50	> 100 µM
Cc1ccc2c(NC(C)c3ccccc3)nc(N3CCNCC3)nc2c1 (centres unmarked)	SARS-CoV-2	cytopathic effect	USA_WA1/2020	retest 8-point	–	maximum response	83.8%
COc1ccc2cc1OCCN(Cc1cc(CN3CCCCC3)cs1)CC(=O)N[C@H](C(C)C)C(=O)NCCn1ccnc1-2	Lassa mammarenavirus	viral replication	Huh-7	10 µM, 72 h	–	remaining activity	60%
CCc1ccc(Sc2cc(C(=O)NCCCN3CCCC(C)C3)c3ccccc3n2)cc1 (centres unmarked)	SARS-CoV-2	cytopathic effect	USA_WA1/2020	first round 5-point	–	efficacy	102%
CC(=O)N1CCN([C@H]2CCN(C(=O)N(C)[C@H](C)c3cc(C(F)(F)F)cc(C(F)(F)F)c3)[C@@H](c3ccc(F)cc3C)C2)CC1	SARS-CoV-2	viral replication, high-content imaging screen	–	cell-based	–	EC50	> 25.1 µM
CC(C)CN(C[C@@H](O)[C@H](Cc1ccccc1)NC(=O)O[C@H]1CO[C@H]2OCC[C@H]21)S(=O)(=O)c1ccc(N)cc1.CCO	rep main protease	reporter gene (mKate2), inhibitor	–	20 µM	–	inhibition	-0.252%
CNC(=O)[C@@H](NC(=O)[C@H](CC(C)C)[C@H](O)C(=O)NO)C(C)(C)C	Daboia russelii	–	C2C12	100 µM, together with: Daboia russelii venom KL	relative to: venom alone	viability difference	-41%
CC1c2ccccc2C(CCCN(C)C)c2cc(C(F)(F)F)ccc21 (centres unmarked)	SARS-CoV-2	viral replication, high-content imaging screen	BetaCov/Belgium/GHB-03021/2020	cell-based	–	EC50	10.5 µM
COCC(=O)N1CC(=O)N[C@@H](CC(C)C)c2nc(cs2)C(=O)N[C@@H](Cc2ccccc2)c2nc(C)nn2CC(=O)N[C@@H](C(C)C)C1	Lassa mammarenavirus	viral replication	Huh-7	10 µM, 72 h	–	remaining activity	111%
CC[C@H](C)[C@H](NC(=O)[C@H](CC(C)C)NC(=O)[C@H](Cc1c[nH]c2ccccc12)NC(=O)[C@H](CCC(N)=O)NC(=O)[C@@H](NC(=O)[C@H](Cc1ccccc1)NC(=O)[C@H](C)NC(=O)[C@H](CCCCNC(=O)COCCOCCNC(=O)COCCOCCNC(=O)CC[C@H](NC(=O)CCCCCCCCCCCCCCCCCCC(=O)O)C(=O)O)NC(=O)[C@H](CCC(N)=O)NC(=O)[C@H](C)NC(=O)[C@@H](NC(=O)[C@H](CCCCN)NC(=O)[C@H](CC(=O)O)NC(=O)[C@H](CC(C)C)NC(=O)C(C)(C)NC(=O)[C@@H](NC(=O)[C@H](CO)NC(=O)[C@H](Cc1ccc(O)cc1)NC(=O)[C@H](CC(=O)O)NC(=O)[C@H](CO)NC(=O)[C@@H](NC(=O)[C@H](Cc1ccccc1)NC(=O)[C@@H](NC(=O)CNC(=O)[C@H](CCC(=O)O)NC(=O)C(C)(C)NC(=O)[C@@H](N)Cc1ccc(O)cc1)[C@@H](C)O)[C@@H](C)O)[C@@H](C)CC)[C@@H](C)CC)C(C)C)C(=O)N[C@@H](C)C(=O)NCC(=O)NCC(=O)N1CCC[C@H]1C(=O)N[C@@H](CO)C(=O)N[C@@H](CO)C(=O)NCC(=O)N[C@@H](C)C(=O)N1CCC[C@H]1C(=O)N1CCC[C@H]1C(=O)N1CCC[C@H]1C(=O)N[C@@H](CO)C(N)=O	–	–	healthy subjects	all MAD doses	–	subjects with injection site reaction	28.6%
COc1cccc(CNC(=O)C2CCN(Cc3cc4ccccc4n3Cc3ccccc3)CC2)c1OC	SARS-CoV-2	cytopathic effect	USA_WA1/2020	round 2, 5-point	–	efficacy	46.8%

Structure (SMILES)	tested on	assay	system	conditions	how to read	quantity	result
CCc1c(C(=O)C(N)=O)c2c(OCC(=O)O)cccc2n1Cc1ccccc1	Daboia russelii	–	C2C12	100 µM, together with: Daboia russelii venom TN	relative to: venom alone	viability difference	-48.5%
COc1ccc2cc(-c3cc(-c4cc(Cl)cc(Cl)c4)nn3[C@@H](C)c3ccc(C(=O)NCCC(=O)O)cc3)ccc2c1	SARS-CoV-2	viral replication, high-content imaging screen	–	cell-based	–	EC50	> 100 µM
COCCCNC(=O)C1CCN(Cc2cc3ccccc3n2Cc2cccc(Cl)c2)CC1	SARS-CoV-2	cytopathic effect	USA_WA1/2020	round 2, 5-point	–	efficacy	50.1%
O=C(O)CCc1nc(-c2ccccc2)c(-c2ccccc2)o1	SARS-CoV-2	viral replication, GFP plate reader screen	–	cell-based	–	EC50	11.8 µM
CCc1nc(C)c(CNc2nc3c(s2)c(C)nn3C)s1	Lassa mammarenavirus	viral replication	Huh-7	10 µM, 72 h	–	remaining activity	65%
Cn1cnc(Cn2c(=O)[nH]/c(=N\c3cc4cn(C)nc4cc3Cl)n(Cc3cc(F)c(F)cc3F)c2=O)n1	–	–	human, moderate renal impairment	oral, 375 mg, treatment-related dry mouth, Moderate severity	–	patients with adverse event	0%
CN1[C@@H]2CC[C@H]1C[C@@H](OC(c1ccccc1)c1ccc(Cl)cc1)C2 (some centres unmarked)	SARS-CoV-2	viral replication, GFP plate reader screen	–	cell-based	–	EC50	9.77 µM
CC1CCCN(CCCNC(=O)c2cc(Sc3ccc(F)cc3)nc3ccccc23)C1 (centres unmarked)	SARS-CoV-2	cytopathic effect	USA_WA1/2020	retest 8-point	–	efficacy	90.8%
Cc1nc(N(C)CCC(O)c2ccccc2)c2ccsc2n1 (centres unmarked)	Lassa mammarenavirus	viral replication	Huh-7	10 µM, 72 h	–	remaining activity	54%
Nc1ncnc2c([C@@H]3N[C@H](CO)[C@@H](O)[C@H]3O)c[nH]c12	Lassa mammarenavirus	viral replication	HeLa, Josiah	50 µM	–	inhibition	55%
O=C1O[C@H]2[C@@H]3OC(=O)c4cc(O)c(O)c(O)c4-c4c(cc(O)c(O)c4O)C(=O)OC[C@H]2O[C@@H](OC(=O)c2cc(O)c(O)c(O)c2)[C@@H]3OC(=O)c2cc(O)c(O)c3c2[C@@H]2C1=CC(=O)[C@](O)(O3)C2(O)O	Spike glycoprotein	binding, biolayer interferometry	–	–	–	Kd	2.03 µM
Cn1c(=O)ccc2ccc(F)c(CCNC[C@H]3CN(c4cnc5c(n4)NC(=O)CO5)C(=O)O3)c21	Legionella pneumophila	–	–	–	–	MIC90	< 0.015 µg/mL
CCOc1ccccc1CNCc1cccn1-c1nnc(N2CCN(c3ccccc3)CC2)s1	SARS-CoV-2	cytopathic effect	USA_WA1/2020	round 1, 5-point	–	efficacy	42.4%
Cc1nc2n(n1)CC(=O)N[C@@H](C(C)C)CN(C(=O)C1CCOCC1)CC(=O)N[C@@H](CC(C)C)c1nc(cs1)C(=O)N[C@H]2Cc1ccccc1	Lassa mammarenavirus	viral replication	Huh-7	10 µM, 72 h	–	remaining activity	109%
CCCCN(CCCC)CCCNC(=O)c1cc(-c2ccc(Cl)s2)nc2ccccc12	SARS-CoV-2	cytopathic effect, cell-based CPE	USA_WA1/2020	–	–	AC50	14.1 µM
Cc1cc(F)cc(C(=O)N2CC(=O)N[C@@H](CC(C)C)c3nc(cs3)C(=O)N[C@@H](Cc3ccccc3)c3nc(C)nn3CC(=O)N[C@@H](C(C)C)C2)c1	Lassa mammarenavirus	viral replication	Huh-7	10 µM, 72 h	–	remaining activity	83%
NC(=O)C(c1ccccc1)(c1ccccc1)[C@@H]1CCN(CCc2ccc3c(c2)CCO3)C1	SARS-CoV-2	viral replication, GFP plate reader screen	–	cell-based	–	EC50	> 25.1 µM

Some of these lines once more:
Structure (SMILES)	tested on	assay	system	conditions	how to read	quantity	result
CCc1nc(C)c(CNc2nc3c(s2)c(C)nn3C)s1	Lassa mammarenavirus	viral replication	Huh-7	10 µM, 72 h	–	remaining activity	65%
C[C@H](NC(=O)Cc1cc(F)cc(F)c1)C(=O)N[C@H](C(=O)OC(C)(C)C)c1ccccc1	rep main protease	reporter gene (mKate2), inhibitor	–	20 µM	–	inhibition	0.00886%
O=C(O[C@@H]1Cc2c(O)cc(O)cc2O[C@@H]1c1cc(O)c(O)c(O)c1)c1cc(O)c(O)c(O)c1	Spike glycoprotein	binding, biolayer interferometry	–	–	–	Kd	11.5 µM
